Experimental data from different studies.
Several values in a cell are separate wells, animals, samples, runs or records. Numbers after ± are the reported error.

Under “grade ≥3 treatment-related AEs”, `COCC1CN(C2CCN(c3cc(OC)c(Nc4ncc(Br)c(Nc5ccc6c(c5P(C)(C)=O)OCCO6)n4)cc3C)CC2)C1` is recorded as 0% (EGFR-mutant NSCLC patients; oral, 30 mg once daily).
`O=C(O)CCCOc1ccc([18F])cc1-c1cc(-c2ccccc2C(F)(F)F)n(-c2ccccc2)n1` gave a tissue uptake of 2.56 ± 0.49 %ID/g (mouse, muscle; intravenous, dose not given, 15 min).
`O=C(CCc1cn([C@@H]2O[C@H](C[18F])[C@@H](O)[C@H](O)[C@H]2O)nn1)Nc1ccc(-c2nnc(-c3ccccn3)nn2)nc1` — result for “tumour to control tumour ratio”: 8.5 (BALB/c nude mouse, LS174T xenograft; intravenous, dose not given, 1 h, added: CC49-TCO pretargeting).
Under “subjects with adverse events”, `CC(C)(O)c1ncc([S@](N)(=O)=NC(=O)Nc2c3c(cc4c2CCC4)CCC3)s1` is recorded as 13% (item: Gastrointestinal disorders; healthy human volunteers; oral, 25 mg twice daily, 14 days, enteric-coated tablet).
With `CCCCCCCOc1ccc(CC[C@](N)(CO)COP(=O)(O)O)cc1C(F)(F)F` the Tmax was 12 h (healthy human males, plasma; oral, 0.25 mg, day 1, median).
For `O=C(Nc1cnccc1-c1ccc([18F])nc1)c1ccnc(NC(=O)C2CC2)c1`, the SUV was 9.37 (FVB/NJ mouse, both sexes, liver; intravenous, 15 min).
With `C=C(NC(=O)c1csc(-c2nc3c(cc2O)-c2nc(cs2)C(=O)NC(C(C)O)C(=O)NC(=C(C)OC)c2nc(cs2)C(=O)NC2c4nc(cs4)C(=O)NC(COC(=O)c4c5c6c(cccc6n4O)COC(=O)C(OC4CC(C)(O)C(N(C)C)C(C)O4)C2OC5)c2nc-3cs2)n1)C(N)=O` (stereo not shown) the Tmax was 0.34 h (cynomolgus monkey, male, plasma; intravenous infusion, 3 mg/kg multiple doses, day 7).
`Cc1nn(-c2nc3c(F)cc(F)cc3s2)c(O)c1C(c1ccc(C(F)(F)F)cc1)c1c(C)nn(-c2nc3c(F)cc(F)cc3s2)c1O` gave a dose-normalised Cmax of 1420 kg·ng/mL/mg and 1900 kg·ng/mL/mg and 2120 kg·ng/mL/mg (ICR mouse, plasma; oral, 50 mg/kg).
Under “systolic blood pressure”, `CCCN(C)c1cc(C(F)(F)F)nc(SCCC(=O)NCc2ccco2)n1` is recorded as “no effect” (Wistar rat, anaesthetised with isoflurane; intraperitoneal, 25 mg/kg, 2 min; reference: vehicle).
For `COc1cccc(OC)c1-c1cc(C(=O)NC2(C(=O)O)C3CC4CC(C3)CC2C4)nn1-c1ccc(C(=O)N(C)CCCN(C)C(=O)[C@H](CCCCNC(=O)[C@H](CC(C)C)NC(=O)C2OC2C(=O)O)NC(=O)CN2CCN(CC(=O)[O-])CCN(CC(=O)[O-])CCN(CC(=O)[O-])CC2)cc1C(C)C.[177Lu+3]` (mixture of isomers), the tumour-to-heart ratio was 11.1 (mouse, HT-29 xenograft; 4 h post injection, biodistribution; reference: tumour over heart uptake).
Under “volume of distribution (Vz)”, `N=C(N)NCCC[C@@H]1NC(=O)[C@H](CO)NC(=O)[C@@H](NC(=O)[C@H](CO)NC(=O)[C@H](CO)NC(=O)[C@H](Cc2c[nH]c3ccccc23)NC(=O)CNC(=O)[C@H](CO)NC(=O)[C@@H](N)Cc2c[nH]c3ccccc23)CSSC[C@@H](C(=O)NCC(=O)O)NC(=O)[C@H](CO)NC1=O` is recorded as 580 L (patients, plasma; intravenous, 5 mg/kg, thrice weekly, median).
`COc1ccc(Nc2nc(Nc3ccc(OCCOCC[18F])cc3)ncc2Br)cc1` has an uptake ratio of 1.67 (ICR mice, S180 tumour; intravenous, 370 kBq, 120 min; reference: tumour over blood).
`COc1cc(N2CCN(C(=O)C3CCCN3)CC2)ccc1Nc1ncc(Cl)c(Nc2ccccc2P(C)(C)=O)n1` (stereo not shown) gave a body weight of 24.7 g and 22.3 g and 24.1 g and 24.5 g and 27.7 g (nude mice, NCI-H3122 xenograft; intraperitoneal, 10 mg/kg every other day, day 5).
`CCC1C(COc2nccc3cc(C(N)=O)c(OC)cc23)NC(=O)C1F` (stereo not shown) gave an AUC(0-t) of 163 ± 53 ng·h/mL (ICR mice, plasma; oral, 10 mg/kg).
For `CC[C@H](C)[C@@H]1NC(=O)[C@H](Cc2ccc(O)cc2)NC(=O)CCCSC[C@@H](C(=O)N(CC(=O)N[C@@H](CC(C)C)C(=O)NCC(N)=O)Cc2ccc(F)cc2)NC(=O)[C@H](CC(N)=O)NC(=O)[C@H](CCC(N)=O)NC1=O`, “serious adverse events” read 0% (human; intranasal, 100 µg single dose).
`CC(C(=O)O)n1nc(Cn2cc3cc(OCC[18F])c(Cl)cc3n2)c2ccccc2c1=O` (racemic) gave a tissue uptake of 0.03 ± 0.02 %ID/g (Sprague-Dawley rat male, fat; 60 min).
The fold change of `CC(C)OCCOCc1ccc(OCC(O)CN(N=O)C(C)C)cc1` (stereo not shown) is reported as 1.5 (duplex sequencing, item: mutation frequency; NMRI mouse, bone marrow; oral, 98.0 mg/kg/day, 4 weeks; reference: vehicle).
`Cc1noc(C)c1Cn1cc(N2C(=O)CN(Cc3cccc(O[C@@H]4O[C@H](C(=O)O)[C@@H](O)[C@H](O)[C@H]4O)c3)C2=O)cn1` has a plasma concentration of 144 ng/mL (rat Sprague-Dawley male, plasma; intravenous, 1 mg/kg of parent drug, 0.25 h).
The Vss of `CCCC[C@H](OC(C)=O)c1ccccc1C(=O)O` is reported as 2.89 ± 1.57 L/kg (Sprague-Dawley rats, both sexes, whole blood; intravenous, 1.25 mg/kg single dose).
`O=C(Nc1cnccc1-c1ccc([18F])cc1)c1ccnc(NC(=O)C2CC2)c1` has a mean SUV of 0.13 (ex vivo biodistribution, gamma counting; GSK-3β overexpressing transgenic mouse, late stage, adipose tissue; intravenous, 1.26 MBq/animal, 120 min post-injection).
The tumour-to-tissue ratio of `CC(C)C[C@H](NC(=O)[C@@H](CCCCNC(=O)[C@@H](Cc1ccccc1)NC(=O)CCCCCCCNC(=O)CN1CCN(CC(=O)O)CCN(CC(=O)O)CCN(CC(=O)O)CC1)NC(=O)[C@H](Cc1ccc(O)cc1)NC(=O)[C@H](CO)NC(=O)[C@H](Cc1c[nH]c2ccccc12)NC(=O)[C@H](Cc1c[nH]cn1)NC(=O)[C@@H]1CCC(=O)N1)C(=O)N[C@@H](CCCNC(=N)N)C(=O)N1CCC[C@H]1C(=O)NCC(N)=O` [indium-111 labelled] is reported as 3.53 (male athymic nude mice, DU-145 prostate cancer xenograft, tumour; intravenous, 0.037 MBq, 2 h; reference: tumour over blood).
With `CC(=O)N[C@H](CC(=O)O)C(=O)N[C@H](Cc1c[nH]c2ccccc12)C(=O)N[C@H](Cc1ccccc1)C(=O)N[C@H](CCCCN)C(=O)N[C@H](C)C(=O)N[C@H](Cc1ccccc1)C(=O)N[C@H](Cc1ccc(O)cc1)C(=O)N[C@H](CC(=O)O)C(=O)N[C@H](CCCCN)C(=O)N[C@@H](C(=O)N[C@H](C)C(=O)N[C@H](CCC(=O)O)C(=O)N[C@H](CCCCN)C(=O)N[C@H](Cc1ccccc1)C(=O)N[C@H](CCCCN)C(=O)N[C@H](CCC(=O)O)C(=O)N[C@H](C)C(=O)N[C@H](Cc1ccccc1)C(N)=O)C(C)C` the Cmax was 5.4 ng/mL (high-risk statin-treated men with CHD, plasma; oral, dose not given, median, doses pooled).
For `O=S(=O)(N[C@H]1CCC[C@@H](N2c3ccccc3CCc3ccccc32)[C@@H]1O)c1ccc(OC(F)(F)F)cc1`, the oral bioavailability was 14% (mouse; oral, 100 mg/kg, suspension formulation).
For `CN1CCC[C@]1(C)/C=C/S(=O)(=O)NC(=O)Nc1c2c(cc3c1CCC3)CC=C2`, “Tmax at second steady-state dose” read 4 h (human, plasma; oral, 50 mg twice daily of parent drug, day 14, metabolite of dosed drug).
For `C=CC(=O)Nc1cc(Nc2nccc(-c3cn(C)c4ccccc34)n2)c(OC)cc1N(C)CCNC`, the recovery was 75.4% (storage stability; human dried blood spot; 10 d, on ice, MQC level).
`C=Cc1c(C)c2cc3nc(c(CC(=O)O)c4[nH]c(cc5nc(cc1[nH]2)C(C)=C5CC)c(C)c4C(=O)O)[C@@H](CCC(=O)OCCOCCOCCOC)[C@@H]3C` has a compound loss of 17% (LC-MS; methanol-water 9:1; 5 min, pH 2.0).
The tumour-to-tissue ratio of `Cc1cc(C)n(CCN(CCN)CCCCCCNC(=O)[C@@H](N)Cc2c[nH]cn2)n1.[99Tc+].[C-]#[O+].[C-]#[O+].[C-]#[O+]` is reported as 5.4 (BALB/c nude mice A549 xenograft; intravenous, 4 h; reference: tumour over bone).
For `CN1CCN(C(=S)N/N=C/c2ccccc2O)CC1`, the Vss was 37.6 ± 16.7 L/kg (plasma; intravenous, 30 mg/kg).

Excerpt of the above:
With `CCCCCCCOc1ccc(CC[C@](N)(CO)COP(=O)(O)O)cc1C(F)(F)F` the Tmax was 12 h (healthy human males, plasma; oral, 0.25 mg, day 1, median).
